Results collected from several papers.
Parts stem from different laboratories: compare values within a part only.

Block 1
Target: Histone acetyltransferase KAT6A, winged helix 1, GST fusion (KAT6A, Homo sapiens, UniProt Q92794, residues 1-85)
Technique: protein binding microarray
Molecule type: double-stranded DNA, one strand shown
Matrix: in vitro
Concentration: not given
Setting: 8-mer, flanks averaged, mean of 2 arrays, mostly near background
Baseline: not given
Reading: higher = stronger binding
Residues (chain): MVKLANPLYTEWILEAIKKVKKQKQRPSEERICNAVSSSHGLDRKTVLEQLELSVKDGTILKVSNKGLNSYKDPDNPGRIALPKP
| Sequence | E-score |
| --- | --- |
| GGTAGAAC | 0.0172 |
| AGTAGATC | -0.143 |
| ATTCATAA | 0.0581 |
| AAACGGTT | -0.0055 |
| CTATGCTC | -0.234 |
| ACGTCGAG | -0.242 |

Block 2
Target: Sal-like protein 4, full length isoform B (SALL4, Homo sapiens, UniProt Q9UJQ4-2, residues 1-616)
Technique: universal PBM
Molecule type: double-stranded DNA, one strand shown
Matrix: in vitro
Concentration: not given
Setting: 8-mer, flanks averaged, mean of replicates
Reading: higher = stronger binding
| Sequence | E-score |
| --- | --- |
| CCGAGCCA | -0.13 |
| ACGTTCAC | -0.0186 |
| CAAGCCTG | -0.0897 |
| CGTAATTA | 0.331 |
| CTACTGCA | 0.0232 |
| CCTAAGCC | -0.296 |
| AAGTCCTC | -0.176 |
| CAGGACGC | -0.175 |
| CCAAGTCC | -0.26 |

Block 3
Target: Interferon regulatory factor 5, full length, phosphomimetic (IRF5, Homo sapiens, UniProt Q13568-2, residues 1-514, S451D/S453D/S456D/S462D)
Technique: protein-binding microarray
Molecule type: double-stranded DNA, one strand shown
Matrix: in vitro
Concentration: 940 nM top
Setting: 60-bp whole probe
Added: salmon DNA 0.4 mg/ml
Baseline: random background probes
Reading: higher = stronger binding
Constant ends, left off below: GCCTAGCAC … GTCTTGATTCGCTTGACGCTGCTG
| Sequence | fitted relative affinity [z-score] |
| --- | --- |
| TTAGGTATCCTTCTCGTTTAGTGCTAG | 0.899 |
| TTAGATTTCGGGTATCGATGAGTGCTA | 2.82 |
| GGGGGAAATGGGAAACCCGGGGTGCTA | 1.07 |
| TTAGATTTCGGCTTTCGATTAGTGCTA | 2.58 |
| AACAGGAGCAGATGGGAAGTGTGCTAG | -0.0847 |
| TTAGATATCGGGACTGGATTCGTGCTA | -0.0351 |
| TTAGGTTTCGGGACTGGGTCAGTGCTA | 7.74 |

Further values, each from its own experiment
| Molecule | target | assay | system | conditions | scale | measurement | value |
| --- | --- | --- | --- | --- | --- | --- | --- |
| PhoQ, residues 284 288 289 292 302 303 WVSSAF | PhoP, residues 12 14 15 18 19 LYFRQ (Escherichia coli, UniProt P23836) | Sort-seq, measured: YFP reporter | E. coli | PhoQ-PhoP variant library, added: 10 µM Mg2+ | baseline: high Mg2+ state, higher = stronger signaling | fold induction | 9.85 |

Excerpt of the above (block 3):
| Sequence | fitted relative affinity [z-score] |
| --- | --- |
| TTAGATTTCGGGTATCGATGAGTGCTA | 2.82 |
| TTAGATTTCGGCTTTCGATTAGTGCTA | 2.58 |
| GGGGGAAATGGGAAACCCGGGGTGCTA | 1.07 |
